Measured values gathered from unrelated publications.
Lines come from different studies, so protocols differ. ± marks the error that the study gave.
Sequence of UniProt Q9UM73 (whole entry, unmodified, looked up): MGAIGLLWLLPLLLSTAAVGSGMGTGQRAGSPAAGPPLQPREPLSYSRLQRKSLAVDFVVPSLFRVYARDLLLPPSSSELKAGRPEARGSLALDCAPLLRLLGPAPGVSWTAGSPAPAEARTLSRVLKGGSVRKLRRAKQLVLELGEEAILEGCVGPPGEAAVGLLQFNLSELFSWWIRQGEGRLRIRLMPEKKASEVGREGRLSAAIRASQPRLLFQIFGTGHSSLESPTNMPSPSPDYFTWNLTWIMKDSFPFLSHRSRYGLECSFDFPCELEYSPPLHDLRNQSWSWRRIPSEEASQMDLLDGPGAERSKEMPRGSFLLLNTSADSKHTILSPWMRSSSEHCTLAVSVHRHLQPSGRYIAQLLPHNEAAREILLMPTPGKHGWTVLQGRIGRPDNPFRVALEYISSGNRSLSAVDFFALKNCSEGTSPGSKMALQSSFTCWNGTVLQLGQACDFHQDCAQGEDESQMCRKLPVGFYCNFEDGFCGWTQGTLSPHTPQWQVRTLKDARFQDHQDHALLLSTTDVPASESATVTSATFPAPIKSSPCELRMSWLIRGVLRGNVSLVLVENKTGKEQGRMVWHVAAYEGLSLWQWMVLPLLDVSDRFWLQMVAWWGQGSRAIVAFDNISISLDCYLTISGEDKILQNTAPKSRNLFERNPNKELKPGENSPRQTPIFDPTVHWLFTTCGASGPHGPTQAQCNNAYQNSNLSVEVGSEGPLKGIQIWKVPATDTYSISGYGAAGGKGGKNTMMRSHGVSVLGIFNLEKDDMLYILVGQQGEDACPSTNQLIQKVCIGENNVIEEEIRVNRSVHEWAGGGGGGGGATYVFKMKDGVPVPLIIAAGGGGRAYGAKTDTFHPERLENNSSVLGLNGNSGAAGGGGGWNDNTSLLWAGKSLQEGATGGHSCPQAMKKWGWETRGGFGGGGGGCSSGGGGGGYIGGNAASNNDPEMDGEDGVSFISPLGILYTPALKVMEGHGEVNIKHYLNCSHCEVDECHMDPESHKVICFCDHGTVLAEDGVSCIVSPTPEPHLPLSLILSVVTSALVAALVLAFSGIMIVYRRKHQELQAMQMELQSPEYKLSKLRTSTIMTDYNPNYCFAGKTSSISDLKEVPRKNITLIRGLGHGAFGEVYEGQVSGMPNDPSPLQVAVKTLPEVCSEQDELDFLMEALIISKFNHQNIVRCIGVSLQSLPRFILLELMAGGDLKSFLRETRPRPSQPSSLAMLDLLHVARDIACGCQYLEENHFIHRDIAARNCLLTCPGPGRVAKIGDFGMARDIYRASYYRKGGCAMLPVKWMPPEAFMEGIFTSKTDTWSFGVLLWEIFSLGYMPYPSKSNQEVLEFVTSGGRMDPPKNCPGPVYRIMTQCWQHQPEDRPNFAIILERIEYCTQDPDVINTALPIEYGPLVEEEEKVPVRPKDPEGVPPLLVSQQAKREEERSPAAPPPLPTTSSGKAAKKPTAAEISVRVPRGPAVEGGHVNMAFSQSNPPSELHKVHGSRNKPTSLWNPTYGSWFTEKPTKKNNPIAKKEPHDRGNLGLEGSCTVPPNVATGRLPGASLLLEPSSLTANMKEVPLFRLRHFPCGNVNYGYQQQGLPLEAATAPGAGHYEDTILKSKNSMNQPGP
Sequence of UniProt Q99759 (whole entry, looked up): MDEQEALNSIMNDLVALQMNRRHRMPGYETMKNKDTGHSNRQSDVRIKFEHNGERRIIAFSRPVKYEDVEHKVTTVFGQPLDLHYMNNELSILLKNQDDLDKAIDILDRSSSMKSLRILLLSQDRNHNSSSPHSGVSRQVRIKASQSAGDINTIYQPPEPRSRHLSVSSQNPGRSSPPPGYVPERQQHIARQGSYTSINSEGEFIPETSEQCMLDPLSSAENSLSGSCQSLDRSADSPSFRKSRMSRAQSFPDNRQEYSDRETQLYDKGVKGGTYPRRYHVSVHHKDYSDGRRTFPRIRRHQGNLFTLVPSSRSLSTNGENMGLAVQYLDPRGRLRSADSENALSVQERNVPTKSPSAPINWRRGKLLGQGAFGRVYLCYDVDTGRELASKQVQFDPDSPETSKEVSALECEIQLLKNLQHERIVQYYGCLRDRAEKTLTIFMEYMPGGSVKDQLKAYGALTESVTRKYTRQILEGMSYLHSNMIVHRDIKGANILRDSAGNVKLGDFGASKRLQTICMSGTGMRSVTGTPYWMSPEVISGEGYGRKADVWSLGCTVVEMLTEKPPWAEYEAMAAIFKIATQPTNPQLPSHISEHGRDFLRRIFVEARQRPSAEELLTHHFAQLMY
Sequence of UniProt Q9UQM7 (whole entry, looked up): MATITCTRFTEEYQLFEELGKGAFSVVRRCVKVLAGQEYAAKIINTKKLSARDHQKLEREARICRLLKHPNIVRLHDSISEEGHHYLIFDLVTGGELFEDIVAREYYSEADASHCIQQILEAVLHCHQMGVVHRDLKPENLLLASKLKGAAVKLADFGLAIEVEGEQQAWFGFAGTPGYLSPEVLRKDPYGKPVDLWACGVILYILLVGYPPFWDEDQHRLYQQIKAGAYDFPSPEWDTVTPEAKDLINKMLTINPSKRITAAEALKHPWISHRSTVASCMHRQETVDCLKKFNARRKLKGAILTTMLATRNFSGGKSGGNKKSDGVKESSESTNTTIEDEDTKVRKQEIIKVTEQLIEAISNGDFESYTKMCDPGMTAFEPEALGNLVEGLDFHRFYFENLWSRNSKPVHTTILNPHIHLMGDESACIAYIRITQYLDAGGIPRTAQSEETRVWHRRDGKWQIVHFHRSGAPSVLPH

`Cc1cc(Oc2nc(N3CC[C@@H](c4ccncc4)C3)ncc2F)[nH]n1` gave an IC50 of 61.7 µM (Squamous cancer cell lines; cell proliferation).
`O=C(O)c1ccc([S][Au][PH](c2ccccc2)(c2ccccc2)[c-]2cccc2)cc1.[Fe+2].c1cc[cH-]c1` gave an IC50 of 4.11 µM (HEK-293T; cell growth or viability, XTT; 24 h).
`COc1ccccc1-c1n[nH]c2nc(NC3CCN(C(=O)Cc4ccc(F)cc4F)CC3)ncc12` has a relative abundance of 0.94 (bead binding, competition bead pull-down, measured: LINJ.25.2450; Leishmania donovani extract; 10 µM; relative to: vehicle).
For `CC(C)(C)C(=O)OCOP(=O)(OCOC(=O)C(C)(C)C)C1CCCN(O)C1=O` (stereo not shown), the log TGI was -5.02 log M (NCI-H226).
`O=C1NC(=O)c2c1c1cc(F)c[n+]3c1c1c2c2cc(O)ccc2[n]1[Ru-4]312([N]=C=S)[S+]3CC[S+]1CC[S+]2CC3` (stereo not shown) has a remaining activity of 30% (ALK tyrosine kinase receptor (ALK, Homo sapiens, UniProt Q9UM73); enzyme activity; 100 nM, human enzyme, together with: 10 µM ATP; relative to: untreated).
The IC50 of `Cc1sc2c(c1C)C(c1ccc(-c3cccc(NC(=O)c4cnn5cccnc45)c3)cc1)=N[C@@H](CC(N)=O)c1nnc(C)n1-2` is reported as 0.0083 µM (Kasumi 1; cell growth or viability, ATP luminescence; 72 h).
For `Cc1cc(Nc2nc(C[C@@]3(C(=O)O)CCN(Cc4cccc(Cl)c4F)[C@H](C)C3)cc(C)c2F)[nH]n1`, the IC50 was 0.0616 µM (BT-549; cell growth or viability, ATP luminescence; 5 days).
`CC(C)C12OC1C1OC13C1(C)CCC4=C(COC4=O)C1CC1OC13C2OC(=O)CCCOC1OC(CO)C(O)C(O)C1O` (stereo not shown) gave an IC50 of 6.48 µM (SW1990; cell growth or viability, XTT; 47 h).
`O=C1NC2(CC2)COc2ncc(F)cc2[C@H]2COCCN2c2ccn3ncc1c3n2` has a total cholesterol of 1.31 ± 0.21 mmol/L (Sprague-Dawley rat, male, serum; oral, 2.5 mg/kg/day, 4 weeks daily, end of treatment).
`CSc1ccc2c(c1)c(CCN)c(C)n2Cc1ccccc1Cl` has an IC50 of 7 µM (BV-2; cell count, high-content imaging; geometric mean).
`CS(C)(=O)=Nc1ccc(-c2ccc(-c3nc4cc(O[C@@H]5CO[C@H]6[C@@H]5OC[C@H]6O)[nH]c4cc3F)cc2)cc1` has an inhibition of -11% (Calcium/calmodulin-dependent protein kinase type II subunit alpha (CAMK2A, Homo sapiens, UniProt Q9UQM7); enzyme activity, inhibitor; 10 µM).
The survival of `Cc1cc(C(=O)Nc2nc3cccc(C)c3n2[C@H]2CCCCN(C(=O)/C=C/CN(C)C)C2)ccn1` is reported as 100% (Trypanosoma brucei; STIB795, mouse acute HAT model; oral, 2.5 mg/kg once daily for 4 days, day 0; relative to: mice).
For `CSc1ccc2c(c1)c(CCN)c(C)n2Cc1ccc(Cl)cc1`, the IC50 was 9.64 µM (HMC3; nuclear intensity, high-content imaging; geometric mean).
For `Cc1ccccc1/C=C/C(=O)N[C@@H](CO)C(=O)N[C@H](C(=O)N[C@H](Cc1ccccc1)C(=O)N[C@@H]1C(=O)N2[C@@H](CC(=O)O)C(=O)Nc3ccccc3[C@@]2(O)[C@@H]1O)[C@@H](C)O`, the IC50 was over 20 µM (SNU-638).
For `CC1CCC2C(C)C(OC(=O)CCC(=O)OC3C(C)OC(n4cc(F)c(=O)[nH]c4=O)C3OC(=O)CCC(=O)OC3OC4OC5(C)CCC6C(C)CCC(C3C)C46OO5)OC3OC4(C)CCC1C32OO4` (stereo not shown), the IC50 was 4.4 µM (7702 normal human cells; cell growth, CCK-8; 48 h).
For `Cc1ccc2c(Cl)cc(Cl)c([O-])c2n1.Cc1ccc2c(Cl)cc(Cl)c([O-])c2n1.[Co+2].c1cnc2c(c1)c1nccnc1c1cccnc12`, the IC50 was 2.35 µM (BEL-7404; cell growth or viability, MTT; 48 h).
`COc1ccccc1-c1n[nH]c2nc(N[C@H]3CC[C@H](NS(=O)(=O)CC(C)C)CC3)ncc12` has a relative abundance of 0.94 (bead binding, competition bead pull-down, measured: LINJ.36.6760; Leishmania donovani extract; 10 µM; relative to: vehicle).
`Cc1sc2c(c1C)C(c1ccc(NC(=O)c3cc([N+](=O)[O-])ccc3F)cc1)=N[C@@H](CC(=O)OC(C)(C)C)c1nnc(C)n1-2` has an IC50 of 4.4e-05 µM (BXPC-3; cell growth or viability, ATP luminescence; 72 h).
The tumour uptake of `CC[C@H](C)[C@H](NC(=O)[C@H](CO)NC(=O)[C@H](Cc1ccc(O)cc1)NC(=O)[C@H](Cc1ccc(O)cc1)NC(=O)[C@H](CC(N)=O)NC(=O)CNC(=O)[C@H](CO)NC(=O)[C@H](Cc1ccc(O)cc1)NC(=O)[C@H](CO)NC(=O)[C@H](CO)NC(=O)[C@H](CC(N)=O)NC(=O)COCCOCCNC(=O)CN1CCN(CC(=O)O)CCN(CC(=O)O)CCN(CC(=O)O)CC1)C(=O)N[C@@H](CC(C)C)C(N)=O` [copper-64 labelled] is reported as 12.7 %ID/mL (dynamic PET; KPC mouse, pancreatic cancer model, tumor; intravenous, 0.6 min, 49 days after tamoxifen).
`C#Cc1ccc(N2CCOCC2)c(/C=N/NC(=O)CCl)c1` gave an IC50 of 4.3 µM (HT-29; cell growth or viability).
The IC50 of `O=C1C=CC(=O)c2ccccc21` is reported as 21.2 µM (HuCC-A1; cell growth or viability, MTT).
For `CC[C@H](C)[C@H](NC(=O)[C@H](CCCCN)NC(=O)CNC(=O)[C@H](CC(C)C)NC(=O)[C@H](Cc1ccccc1)NC(=O)[C@H](CCCCN)NC(=O)[C@H](CO)NC(=O)[C@H](Cc1ccccc1)NC(=O)[C@H](Cc1c[nH]c2ccccc12)NC(=O)[C@H](CCC(N)=O)NC(=O)[C@@H](NC(=O)[C@H](Cc1ccccc1)NC(=O)CCCCCNC(=O)CN1CCN(CC(=O)O)CCN(CC(=O)O)CCN(CC(=O)O)CC1)C(C)C)C(=O)N[C@@H](CCC(=O)O)C(=O)N1CCC[C@H]1C(=O)N[C@@H](CC(=O)O)C(=O)N[C@H](C(=O)N[C@@H](CO)C(=O)N[C@@H](CCC(N)=O)C(=O)N[C@H](C(=O)N[C@@H](CCC(N)=O)C(=O)N[C@@H](CC(=O)O)C(=O)N1CCC[C@H]1C(=O)N[C@@H](CC(N)=O)C(=O)N[C@@H](CC(=O)O)C(=O)N[C@@H](CCC(N)=O)C(=O)N[C@@H](Cc1ccc(O)cc1)C(=O)N[C@@H](CCC(=O)O)C(=O)N1CCC[C@H]1C(=O)N[C@@H](Cc1ccccc1)C(=O)O)C(C)C)C(C)C` [copper-64 labelled], the tissue uptake was 1.86 ± 0.4 %ID/g (C57BL/6 male mouse, tumour-naive, bone; 0.5 h).
With `CC(C)[C@H]1NC(=O)C[C@H]2/C=C/CCSSC[C@@H](NC1=O)C(=O)N[C@H](Cc1cccc3ccccc13)C(=O)NCC(=O)O2` the inhibition was -8.1% (ALK tyrosine kinase receptor (ALK, Homo sapiens, UniProt Q9UM73, F1174L); enzyme activity, inhibitor; 10 µM).
For `CC(=O)O[C@@H]1C[C@@H](C)O[C@H]2O[C@@H]3C[C@@H]4CC[C@@H]5[C@H](CC[C@]6(C)[C@@H](C7=CC(=O)OC7)CC[C@]56O)[C@@]4(C)C[C@H]3O[C@]21O`, the IC50 was 9.38 µM (L6; cell growth or viability, resazurin; 72 h).
`O[C@]12C=C(c3nccc4c3[nH]c3ccccc34)[C@@H]3CCN(CCCC/C=C\CC1)C[C@@]31C[C@@H]3/C=C\CCCCN3[C@H]12` has an IC50 of 1.1 µg/mL (BT-549; cell growth or viability, neutral red; 48 h).
`CN(C)[C@H]1C[C@@]23CC[C@@]4(O2)C(=CC[C@]2(C)[C@@H](c5ccc6ccncc6c5)CC[C@H]24)C=C3[C@@H](O)[C@@H]1O` gave an inhibition of 18.2% (Mitogen-activated protein kinase kinase kinase 3 (MAP3K3, Homo sapiens, UniProt Q99759); ATP probe labelling, inhibitor, KiNativ profiling; 1 µM).
`c1cnc2c(c1)c1nccnc1c1cccnc12` has an IC50 of over 50 µM (L02; cell growth or viability, MTT; 48 h).
`CCOc1ccccc1-n1c(CN2CCNCC2)nc2ccccc2c1=O` has an IC50 of 0.15 µM (LS180; cell growth or viability; 72 h).
`Cc1ccccc1/C=C/C(=O)N[C@@H]1C(=O)N[C@@H](Cc2ccccc2)C(=O)N[C@H](CC(C)C)C(=O)N[C@@H](C(C)C)C(=O)N[C@@H](C)C(=O)N[C@H](CCC(N)=O)C(=O)NCC(=O)N2CCC[C@H]2C(=O)N[C@@H](CCCNC(=N)N)C(=O)N[C@H](Cc2ccccc2)C(=O)O[C@H]1C` gave an IC50 of over 20 µM (SNU-638).
`Fc1cccc(-n2cc(-c3ccccc3)nc2SCc2ccc(C(F)(F)F)cc2)c1` has an IC50 of 6.8 µM (HBE; ferroptotic cell death, inhibitor; together with: erastin 10 µM).
With `O=C(c1cc(Cc2n[nH]c(=O)c3ccccc23)ccc1F)N1CC(CNC2CC2)C1` the IC50 was 0.0026 µM (MDA-MB-453).
`O=C1C=CC(=C(c2ccc(O)cc2)c2c(C#Cc3ccc(O)cc3)cccc2-c2ccc(O)cc2)C=C1` has an IC50 of over 50 µM (HUVEC; cell growth or viability, MTT; 48 h).
`CC[C@H](C)[C@@H]([C@@H](CC(=O)N1CCC[C@H]1[C@H](OC)[C@@H](C)C(=O)N[C@H](C)[C@@H](O)c1ccccc1)OC)N(C)C(=O)[C@@H](NC(=O)[C@H](C(C)C)N(C)C(=O)OCc1ccc(NC(=O)[C@H](CCCNC(N)=O)NC(=O)[C@@H](NC(=O)CCCc2cn(CC(=O)NCCCC[C@H]3NC(=O)[C@H](CCCCN)NC(=O)[C@H](CCCNC(N)=O)NC(=O)[C@H](Cc4ccc(O)cc4)NC(=O)[C@@H](NC(=O)[C@H](Cc4ccc5ccccc5c4)NC(=O)[C@H](CCCNC(=N)N)NC(=O)[C@@H](N)CCCNC(=N)N)CSSC[C@@H](C(=O)N[C@@H](CCCNC(=N)N)C(N)=O)NC(=O)[C@H](CCCNC(N)=O)NC(=O)[C@H](CCCNC(=N)N)NC(=O)[C@H](Cc4ccc(O)cc4)NC(=O)[C@@H]4CCCN4C3=O)nn2)C(C)C)cc1)C(C)C` has an IC50 of 3.44 µM (L02; cell growth or viability, CCK-8).
`CC(C)C12OC1C1OC13C1(C)CCC4=C(COC4=O)C1CC1OC13C2OC(=O)CCC(=O)OC1OC(CO)C(O)C(O)C1O` (stereo not shown) has an IC50 of 5.64 µM (human Fibroblast; cell growth or viability, XTT; 47 h).
`CCC1(c2ccc(NC(=O)CCC(=O)OC3OC4OC5(C)CCC6C(C)CCC(C3C)C46OO5)cc2)CCC(=O)NC1=O` (mixture of isomers) has an IC50 of 22 µM (IOSE-144; cell growth or viability, CCK-8).
The viability of `Cc1ccc(NS(=O)(=O)c2c(C(=O)N3CCCCCC3)c(C)n(C)c2C)c(Cl)c1` is reported as 97.4% (HaCaT; 0.046 µM, 60 h).
For `CN(C)C(=O)[C@@H](NC(=O)c1cc(-c2ccnn2C)ccc1-c1ccc(C(F)(F)F)cc1)c1cccc(C(F)(F)F)c1`, the IC50 was 0.3 µM (NKL effector, Ba/F3-ULBP3 target; NKG2D-mediated cell killing, inhibitor).
